Earlier results that unrelated publications cite.
Lines come from different studies, so protocols differ. ± gives the spread as reported.

Compound | test system | setting | how to read | quantity | value
C[C@H]1COc2c(N3CCN(C)CC3)c(F)cc3c(=O)c(C(=O)O)cn1c23 | caseum | 5 µM, 4 h, 37 °C | – | unbound fraction | 8.34 ± 0.4%
CNCC1CCCCC1(O)c1cccc(OC)c1 (centres unmarked) | human, urine | oral, dose not given, after tramadol dosing | reference: dose | urinary excretion | > 10%
CCC1(c2ccccc2)C(=O)NC(=O)NC1=O | human, plasma | total concentration, therapeutic range | – | therapeutic plasma concentration | 15 to 40 µg/mL
COc1ccc2c3c1O[C@H]1C(=O)CC[C@H]4[C@@H](C2)N(C)CC[C@]314 | non-drug abusers | oral, 30 mg, peak drug minus placebo, unit not given, with: acetaminophen combination | reference: placebo | drug liking versus placebo | 8
CC(=O)NC[C@H]1CN(c2ccc(-c3ccc(CNCc4cnn[nH]4)cc3)c(F)c2)C(=O)O1 | caseum | 5 µM, 4 h, 37 °C | – | unbound fraction | 5.2 ± 0.8%
CCOC(=O)C1(c2ccccc2)CCN(C)CC1 | – | – | – | pKa | 8.58
COc1nc2ccc(Br)cc2cc1[C@@H](c1ccccc1)[C@@](O)(CCN(C)C)c1cccc2ccccc12 | THP-1 foamy macrophage matrix | 5 µM, 4 h, 37 °C | – | fraction unbound | < 0.01%
CN[C@]1(c2ccccc2Cl)CCCCC1=O | human, placebo phase | intravenous, dose not given | – | AUC(0-inf) | 76 ng·h/mL
NNC(=O)c1ccncc1 | caseum | 5 µM, 4 h, 37 °C | – | unbound fraction | > 99.9%
O=C(O)c1nn(Cc2ccc(Cl)cc2Cl)c2ccccc12 | plasma | concentration not given | – | Cmax | 23.6 µM
COc1ccc(CN(C(=O)[C@@H](N)Cc2c(C)cc(C(N)=O)cc2C)[C@@H](C)c2nc(-c3ccccc3)c[nH]2)cc1C(=O)O | dog | intravenous, 2 mg/kg, body weight 8.6 kg | – | total clearance | 171 mL/min
CC[C@@H](CO)NCCN[C@@H](CC)CO | caseum | 5 µM, 4 h, 37 °C | – | unbound fraction | 35.2 ± 4.4%
CNC1(c2ccccc2Cl)CCCCC1=O (racemic) | human | oral | – | oral bioavailability | 17 to 24%
COc1ccc2c3c1O[C@H]1C(=O)CC[C@@]4(O)[C@@H](C2)NCC[C@]314 | patients with hepatic or renal impairment, plasma | dose not given | – | Cmax | increased
CC(=O)NC[C@H]1CN(c2ccc(N3CCOCC3)c(F)c2)C(=O)O1 | caseum | 5 µM, 4 h, 37 °C | – | unbound fraction | 29.3 ± 3.6%
COc1ccc2c3c1O[C@H]1C(=O)CC[C@@]4(O)[C@@H](C2)N(C)CC[C@]314 | human drug abusers | oral, 30 mg, peak, 100-point scale, unit not given | reference: placebo | drug liking-disliking | 19
CC(N)Cc1ccc2c(c1)OCO2 (centres unmarked) | healthy human subjects | oral, dose not given | – | Tmax | 4.6 to 5.9 h
Cc1ncc2n1-c1ccc(Cl)cc1C(c1ccccc1F)=NC2 | human | oral, 2.5 mg, single agent, geometric mean | – | AUC(0-inf) | 0.0671 µM·h
Nc1ccc(C(=O)O)c(O)c1 | caseum | 5 µM, 4 h, 37 °C | – | unbound fraction | 54.7 ± 1.4%
COC(=O)Nc1nc2cc(C(=O)c3ccc(F)cc3)ccc2[nH]1 | Wistar rat, liver, lung, kidney, muscle, fat | oral, 10 mg/kg | – | tissue radioactivity | ≤ 3.1 µg/g
CNC(C)Cc1ccc(O)c(OC)c1 (centres unmarked) | healthy human subjects | oral, dose not given | – | Tmax | 2.7 to 5 h
COc1cccc(C2(O)CCCCC2CN(C)C)c1 (centres unmarked) | human, urine | oral, dose not given | reference: dose | urinary excretion unchanged | 12 to 32%
O=[As][O-].[Na+] | – | – | – | pKa | 9.23

A few entries again:
Compound | test system | setting | how to read | quantity | value
CC(=O)NC[C@H]1CN(c2ccc(N3CCOCC3)c(F)c2)C(=O)O1 | caseum | 5 µM, 4 h, 37 °C | – | unbound fraction | 29.3 ± 3.6%
COc1ccc2c3c1O[C@H]1C(=O)CC[C@@]4(O)[C@@H](C2)N(C)CC[C@]314 | human drug abusers | oral, 30 mg, peak, 100-point scale, unit not given | reference: placebo | drug liking-disliking | 19
